# Results pooled from the literature.
# Lines come from different studies, so protocols differ. Numbers after ± are the reported error.
Compound,cell line,assay,system,setting,how to read,quantity,value
CC(C)CC(O)(CC(C)C)c1cn(C(=O)N2CCCC2)nn1,mouse T-cells,"N-terminal labeled proteins, N-terminal enrichment proteomics, item: SERF2",,"1 nM, 6 h",baseline: DMSO,SILAC ratio,2.66 ± 0.15
COC(=O)[C@H](CC(C)C)NC(=O)[C@@H]1CCCN1C(=O)[C@@H](NC(=O)[C@H](CCC(=O)C=[N+]=[N-])NC(=O)OCc1ccccc1)C(C)C,wild-type human myoblasts,,,"50 µM, 2 h",,PGC-1α mRNA level,increased
N=C(N)NCCC[C@H](N)C(=O)NCC(=O)N[C@@H](CCC(=O)O)C(=O)O,NIH 3T3 fibroblasts,,peptide-functionalised PEG-glass,"concentration not given, 4 h",,cell spreading area,554 ± 125 µm²
C[C@H](NC(=O)[C@H](CCCNC(=N)N)NC(=O)[C@H](CCC(=O)O)NC(=O)[C@H](CCCNC(=N)N)NC(=O)[C@H](CCCNC(=N)N)NC(=O)[C@@H](NC(=O)[C@H](CCCNC(=N)N)NC(=O)[C@H](C)NC(=O)[C@H](CCCNC(=N)N)NC(=O)[C@H](CCC(=O)O)NC(=O)[C@@H](N)CCCNC(=N)N)[C@@H](C)O)C(=O)N[C@@H](CCCNC(=N)N)C(=O)N[C@H](C(=O)N[C@@H](CCCNC(=N)N)C(=O)N[C@@H](CCC(=O)O)C(=O)N[C@@H](CCCNC(=N)N)C(=O)N[C@@H](C)C(=O)N[C@@H](CCCNC(=N)N)C(=O)N[C@H](C(=O)N[C@@H](CCCNC(=N)N)C(=O)O)[C@@H](C)O)[C@@H](C)O,A-375,"western blot, item: VEGF165",,25 µM,,protein level,decreased
CC[C@H](C)[C@H](NC(=O)[C@H](CCC(=O)O)NC(=O)CNC(=O)[C@@H](NC(=O)[C@H](CC(C)C)NC(=O)[C@H](CC(C)C)NC(=O)[C@H](CC(C)C)NC(=O)[C@H](CC(C)C)NC(=O)[C@H](CS)NC(=O)[C@H](CO)NC(=O)[C@H](Cc1ccccc1)NC(=O)CNC(=O)[C@H](CCCNC(=N)N)NC(=O)[C@@H]1CCCN1C(=O)[C@H](C)NC(=O)[C@H](CCSC)NC(=O)CNC(=O)CNC(=O)[C@H](Cc1ccccc1)NC(=O)[C@H](CCCCN)NC(=O)[C@H](Cc1c(C)cc(O)cc1C)NC(=O)[C@H](N)CCCNC(=N)N)[C@@H](C)O)C(=O)N[C@@H](CC(=O)O)C(=O)N[C@@H](CC(C)C)C(=O)N1CCC[C@H]1C(=O)N[C@H](C(=O)N[C@@H](CCCCN)C(=O)N[C@@H](CCCNC(=N)N)C(=O)N[C@@H](CCCNC(=N)N)C(=O)N[C@@H](C)C(N)=O)C(C)C,HT-22,"western blot, item: MnSOD",,"10 µM, 24 h, together with: amyloid beta 42 2 µM",baseline: HNG plus SS-31,protein level,136%
C=C1C(=O)O[C@H]2[C@H]1CCC(COC(=O)c1ccc(C(F)(F)F)cc1C(F)(F)F)=C1CC[C@@](C)(O)[C@@H]12,M9-ENL1 leukaemia cells,annexin V/7-AAD flow cytometry,,"24 h, 5% human plasma",,CC50,5.2 µM
CC/C=C\C/C=C\C/C=C\C/C=C\C/C=C\C/C=C\CCC(=O)Nc1ccn(C2OC(CO)C(O)C2(F)F)c(=O)n1 (centres unmarked),ACHN,NCI60 screen,,,,CC50,39.4 µM
CCCN[C@H]1C=C[C@]2(O[C@H]([C@@H](CC)C(=O)[C@@H](C)[C@@H](O)[C@H](C)[C@@H]3O[C@@H]([C@@H](CC)C(=O)O)CC[C@@H]3C)[C@@H](C)C[C@H]2C)O[C@@]12CC[C@@](C)([C@H]1CC[C@](O)(CC)[C@H](C)O1)O2,HMLER CD24low/CD44high,"cell viability, CellTiter-Blue",,72 h,baseline: IC50 HMLER CD24high/CD44low over CD24low/CD44high,selectivity ratio,10.1
Cc1ccc(Nc2ncc3c(n2)N(C)C(=O)N(c2cc(NC(=O)c4cc(-n5cnc(C)c5)cc(C(F)(F)F)c4)ccc2C)C3)cn1,Huh-7,"cell growth or viability, ATP luminescence",,72 h,,GI50,0.037 µM
CC[C@@]1(O)C(=O)OCc2c1cc1n(c2=O)Cc2cc3cc(OC(=O)CCCC(=O)NCC(=O)N[C@@H](Cc4ccccc4)C(=O)N[C@@H](Cc4ccccc4)C(=O)N[C@@H](Cc4ccc(O)cc4)C(=O)NCCS)ccc3nc2-1,HepG2 spheroids,,,"100 µM, 7 days",baseline: initial,spheroid volume,~50%
CC1(C)CC([n+]2cc([NH-])on2)CC(C)(C)N1O,hTM-80,superoxide dismutase activity,,concentration not given,baseline: vehicle,fold increase,40 fold
COc1cc(C)c(OC)c2c1OCO2,DU-145,"cell growth or viability, MTT",,72 h,,GI50,> 250 µM
Cc1cc(C)c(N2CCN(c3c(C)cc(C)cc3C)C2=[Se])c(C)c1.[Cl][Au],A2780 ADR,MTT,,,baseline: A2780 ADR over A2780,resistance factor,1
COc1c(C)cc2c(c1OC)OCO2,T47D,"cell growth or viability, MTT",,72 h,,GI50,> 250 µM
CCOC(=O)c1ccc(NC(=S)Nc2ccc3c(c2)C(C)(C)CC(C)(C)S3)cc1,CAKI-1,MTS,,"range over 1 to 12.5 µM, 48 h",,maximum growth inhibition,56.5 ± 14.6%
CCCc1cc(OC)c(OC)c(OC)c1OC,T47D,"cell growth or viability, MTT",,72 h,,GI50,13.3 µM
CNC(=O)c1cc(Oc2ccc(NC(=O)c3cc(-c4cccc(OC(=O)CCC(=O)OC5OC6OC7(C)CCC8C(C)CCC(C5C)C68OO7)c4)ccn3)cc2)ccn1 (centres unmarked),HepG2 and LO2,"cell viability, MTT",,72 h,baseline: IC50 LO2 over IC50 HepG2,selectivity ratio,3.6
C=CCc1cc(OC)c(OC)c(OC)c1OC,T47D,"cell growth or viability, MTT",,72 h,,GI50,> 250 µM
CS(C)(=O)=Nc1ccc(-c2ccc(-c3nc4cc(O[C@@H]5CO[C@H]6[C@@H]5OC[C@H]6O)[nH]c4cc3F)cc2)cc1,L6 rat myoblasts,"ACC phosphorylation, activator, ELISA",,30 min,,EC150,0.45 ± 0.1 µM
CCCc1cc(OC)c2c(c1)OCO2,T47D,"cell growth or viability, MTT",,72 h,,GI50,100 µM
CC(C)[C@@H](C)/C=C/[C@@H](C)[C@H]1CC[C@@H]2[C@]1(C)CC[C@H]1[C@]23C=C[C@]2(C[C@@H](OC(=O)CCCC(=O)O)CC[C@]12C)OO3,HMEC,"cell viability, CellTiter-Glo",,,,EC50,> 20 µM
CCCCCCCCC[P+](c1ccccc1)(c1ccccc1)c1ccccc1,DU-145,"cell growth or viability, MTT",,72 h,,GI50,1.23 µM
CC[C@H](C)[C@H](NC(=O)[C@H](Cc1ccccc1)NC(=O)[C@H](CC(=O)O)NC(=O)[C@H](CCCCN)NC(=O)[C@H](C)NC(=O)[C@H](CCCCN)NC(=O)[C@H](CC(N)=O)NC(=O)[C@H](CC(C)C)NC(=O)[C@H](Cc1c[nH]c2ccccc12)NC(=O)[C@H](CCC(=O)O)NC(=O)[C@H](CCCCN)NC(=O)[C@@H](NC(=O)CNC(=O)[C@H](C)N)[C@@H](C)O)C(=O)N[C@@H](CCCCN)C(=O)N[C@@H](CCC(=O)O)C(=O)N[C@@H](CCCCN)C(=O)NCC(=O)N[C@@H](CC(C)C)C(=O)N[C@@H](CCC(=O)O)C(=O)N[C@@H](CCSC)C(=O)N[C@@H](CC(C)C)C(=O)N[C@@H](CO)C(=O)N[C@@H](C)C(=O)N[C@@H](C)C(=O)N[C@@H](C)C(=O)N[C@@H](CC(N)=O)C(=O)N[C@@H](C)C(=O)N[C@@H](C)C(=O)N[C@@H](CC(C)C)C(=O)N[C@@H](CC(N)=O)C(=O)O,HEK293 cells,"intracellular calcium, FLIPR",,0.1% BSA,,EC50,> 100 µM

# For quick reference, copied from above:
Compound,cell line,assay,system,setting,how to read,quantity,value
CS(C)(=O)=Nc1ccc(-c2ccc(-c3nc4cc(O[C@@H]5CO[C@H]6[C@@H]5OC[C@H]6O)[nH]c4cc3F)cc2)cc1,L6 rat myoblasts,"ACC phosphorylation, activator, ELISA",,30 min,,EC150,0.45 ± 0.1 µM
CCCc1cc(OC)c2c(c1)OCO2,T47D,"cell growth or viability, MTT",,72 h,,GI50,100 µM
CC(C)[C@@H](C)/C=C/[C@@H](C)[C@H]1CC[C@@H]2[C@]1(C)CC[C@H]1[C@]23C=C[C@]2(C[C@@H](OC(=O)CCCC(=O)O)CC[C@]12C)OO3,HMEC,"cell viability, CellTiter-Glo",,,,EC50,> 20 µM
CCCCCCCCC[P+](c1ccccc1)(c1ccccc1)c1ccccc1,DU-145,"cell growth or viability, MTT",,72 h,,GI50,1.23 µM
